Measurements collected from several papers.
A part holds a random share of what one study measured.
Chain of UniProt P07270 (whole entry, looked up): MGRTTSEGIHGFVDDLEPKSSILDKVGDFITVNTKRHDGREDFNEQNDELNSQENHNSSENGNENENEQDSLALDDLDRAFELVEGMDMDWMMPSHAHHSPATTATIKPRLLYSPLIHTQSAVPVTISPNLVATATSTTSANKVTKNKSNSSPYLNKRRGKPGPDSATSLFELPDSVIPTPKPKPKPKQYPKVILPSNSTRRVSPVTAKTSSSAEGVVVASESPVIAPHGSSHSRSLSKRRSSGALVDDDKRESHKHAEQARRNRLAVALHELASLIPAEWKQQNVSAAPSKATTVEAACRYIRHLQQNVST
Chain of UniProt P17106 (whole entry, looked up): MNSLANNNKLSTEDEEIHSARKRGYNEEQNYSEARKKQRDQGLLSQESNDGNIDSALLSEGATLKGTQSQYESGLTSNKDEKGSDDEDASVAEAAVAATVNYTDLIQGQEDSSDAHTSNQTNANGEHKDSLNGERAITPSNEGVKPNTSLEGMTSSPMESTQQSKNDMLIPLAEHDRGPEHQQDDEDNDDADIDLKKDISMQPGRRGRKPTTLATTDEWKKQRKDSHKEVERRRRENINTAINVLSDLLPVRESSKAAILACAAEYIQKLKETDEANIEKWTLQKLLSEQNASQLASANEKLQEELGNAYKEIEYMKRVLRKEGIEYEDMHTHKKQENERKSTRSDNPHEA

Study 1 — method: protein binding microarray; form: double-stranded DNA, one strand shown; medium: in vitro; concentration: not given; baseline: not given; direction: higher = stronger binding
Target: Histone acetyltransferase KAT6A, both winged helices, GST fusion (KAT6A, Homo sapiens, UniProt Q92794, residues 1-181)
Setting: 8-mer, flanks averaged, mean of 2 arrays, mostly near background
Residues (chain): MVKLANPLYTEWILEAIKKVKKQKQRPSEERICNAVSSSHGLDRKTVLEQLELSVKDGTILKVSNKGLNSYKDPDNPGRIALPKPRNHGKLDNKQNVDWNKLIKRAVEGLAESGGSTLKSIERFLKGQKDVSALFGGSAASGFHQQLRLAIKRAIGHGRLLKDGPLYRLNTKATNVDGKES
Oligonucleotide | E-score
GCTGCACC | 0.0218
ATAACGCG | 0.285
CGCCGCAC | 0.293

Other studies, line by line
Molecule | target | test | system | conditions | scale | endpoint | value
CGCTCCTTAGTAAAGCACGTGCCGATGATATCAATTGTCTTGATTCGCTTGACGCTGCTG | Centromere-binding protein 1, full length, His-tagged (CBF1, Saccharomyces cerevisiae, UniProt P17106, residues 1-351) | competition protein-binding microarray | double-stranded DNA, one strand shown, in vitro | 2 µM, whole 60-bp probe, lowest competitor level, together with: Pho4 competitor, 0.05 µM | higher = stronger binding | fluorescence intensity | 3640 a.u.
PhoQ, residues 284 288 289 292 302 303 TAVSDG | PhoP, residues 12 14 15 18 19 FWNTL (Escherichia coli, UniProt P23836) | Sort-seq, refers to: YFP reporter | E. coli | PhoQ-PhoP variant library, together with: 10 µM Mg2+ | baseline: high Mg2+ state, higher = stronger signaling | fold induction | 4.25
ACAAATCAAGAATCGCACGTGAAAATATCAAGCGCGGTCTTGATTCGCTTGACGCTGCTG | Phosphate system positive regulatory protein PHO4, full length, GST-tagged (PHO4, Saccharomyces cerevisiae, UniProt P07270, residues 1-312) | competition protein-binding microarray | double-stranded DNA, one strand shown, in vitro | 2 µM, whole 60-bp probe, lowest competitor level, together with: Cbf1 competitor, 0.05 µM | higher = stronger binding | fluorescence intensity | 14900 a.u.
GGTTGGTGTGGTTGG (2'F-ANA at 7 8 10 11 12) | Prothrombin, mature alpha-thrombin (F2, Homo sapiens, UniProt P00734) | aptamer microarray, sandwich | DNA with 2'F-ANA, in vitro | 200 nM, whole 15-mer aptamer, many near background, together with: Cy3 exosite-II aptamer, 400 nM | higher = stronger binding | mean fluorescence intensity | 241 a.u.
CUGCAU | TAR DNA-binding protein 43, full length, His tag (TARDBP, Homo sapiens, UniProt Q13148, residues 1-414) | RNA Bind-n-Seq | RNA, in vitro | 20 nM, 6-mer, flanks averaged, single round, together with: 150 mM KCl | baseline: input library, higher = stronger binding | 6-mer enrichment (R) | 0.647

Repeated from above (other studies, line by line):
Molecule | target | test | system | conditions | scale | endpoint | value
GGTTGGTGTGGTTGG (2'F-ANA at 7 8 10 11 12) | Prothrombin, mature alpha-thrombin (F2, Homo sapiens, UniProt P00734) | aptamer microarray, sandwich | DNA with 2'F-ANA, in vitro | 200 nM, whole 15-mer aptamer, many near background, together with: Cy3 exosite-II aptamer, 400 nM | higher = stronger binding | mean fluorescence intensity | 241 a.u.
